Measurements from different studies.
Lines come from different studies, so protocols differ. Several values in a cell are separate wells, animals, samples, runs or records.
NOS3: Nitric oxide synthase 3 (NOS3, Bos taurus, UniProt P29473)
BIRC2 BIR3 domain: Baculoviral IAP repeat-containing protein 2, BIR3 domain (BIRC2, Homo sapiens, UniProt Q13490)
Proline--tRNA ligase: Proline--tRNA ligase (Plasmodium falciparum, UniProt Q8I5R7)
CA9: Carbonic anhydrase 9 (CA9, Homo sapiens, UniProt Q16790)
HDAC2: Histone deacetylase 2 (HDAC2, Homo sapiens, UniProt Q92769)

SMILES | target | test | system | conditions | how to read | selectivity ratio
Cc1cc(N)nc(CC2CNCC2OCCNCC(F)(F)c2ccc(F)cc2)c1 (stereo not shown) | NOS3 | hemoglobin capture |  |  | reference: Ki eNOS over Ki nNOS | 190
CN[C@@H](C)C(=O)N[C@H]1CN(C(=O)Cc2ccccc2)CC[C@H]2CC[C@@H](C(=O)NCc3ccc(Cl)cc3)N2C1=O | BIRC2 BIR3 domain | fluorescence polarization |  |  | reference: Ki XIAP over Ki cIAP1 | 791
CSCC[C@H](NC(=O)[C@H](CC(C)C)NC(=O)[C@H](Cc1c[nH]cn1)NC(=O)[C@@H](C)NC(=O)[C@@H](NC(=O)[C@H](C)NC(=O)[C@H](Cc1c[nH]c2ccccc12)NC(=O)[C@H](CCC(N)=O)NC(=O)[C@H](CC(N)=O)NC(=O)CNC(=O)[C@H](CC(C)C)NC(=O)[C@H](CCCNC(=N)N)NC(=O)[C@H](CCC(N)=O)NC(=O)[C@@H]1CCC(=O)N1)C(C)C)C(N)=O | GRPR (Homo sapiens, UniProt P30550) | binding | HuTu80 and BALB/3T3 hGRPR |  | reference: GRPR over NMBR | > 200 fold
Cc1cc(N2CC[C@](C#N)(C3(C)CC3)C2=O)cc(C(=O)NCc2cc(F)cc(-c3cnn(C)c3)c2)n1 | Proline--tRNA ligase | aminoacylation activity, inhibitor, malachite green |  |  | reference: human over P. falciparum IC50 | ~1 and 1.1
O=C(Nc1ccc(C(=O)Nc2ccc(C(=O)Nc3ccc(S(=O)(=O)O)c4cc(S(=O)(=O)O)cc(S(=O)(=O)O)c34)cc2)cc1)Nc1ccc(C(=O)Nc2ccc(C(=O)Nc3ccc(S(=O)(=O)O)c4cc(S(=O)(=O)O)cc(S(=O)(=O)O)c34)cc2)cc1 | Chymotrypsinogen A (Bos taurus, UniProt P00766) |  |  |  | reference: HNE over Chymotrypsinogen A | ≥ 818 fold
CCN(CC)c1ccc(CNC(=O)[C@@H]2CC[C@@H]3CCN(C(=O)Cc4ccccc4)C[C@H](NC(=O)[C@H](C)NC)C(=O)N32)cc1 | BIRC2 BIR3 domain | fluorescence polarization |  |  | reference: Ki XIAP over Ki cIAP1 | 287
COc1cc(-c2ccnc3nc(Nc4ccc(S(N)(=O)=O)cc4)nn23)cc(OC)c1OC | CA9 | inhibitor |  |  | reference: Ki hCA IV over Ki CA9 | 21.8
CN[C@@H](C)C(=O)N[C@H]1CN(C(=O)Cc2ccccc2)CC[C@H]2CC[C@@H](C(=O)NCc3ccc(OC)cc3)N2C1=O | BIRC2 BIR3 domain | fluorescence polarization |  |  | reference: Ki XIAP over Ki cIAP1 | 904
Cc1cc(N)nc(C[C@@H]2CNC[C@@H]2OCCC/C=C/c2cccc(F)c2)c1 | NOS3 | enzyme activity, inhibitor |  |  | reference: Ki NOS3 over Ki nNOS | 121
CNCc1c(OCc2ccc(F)cc2)ccc2ccccc12 | SLC6A2 (Homo sapiens, UniProt P23975) | binding |  |  | reference: Ki SERT over NET | < 2 fold
NS(=O)(=O)c1ccc(Nc2nc3nccc(-c4ccc5ccccc5c4)n3n2)cc1 | CA9 | inhibitor |  |  | reference: Ki hCA II over Ki CA9 | 5.7
COc1ccc(CN(CCCCCCC(=O)NO)Cc2ccc(OC)c(OC)c2)cc1OC | HDAC2 | deacetylase activity, inhibitor, fluorescence |  | with: Boc-Lys(Ac)-AMC substrate | reference: IC50 HDAC2 over IC50 HDAC1 | 4.1
CN[C@@H](C)C(=O)N[C@H]1CN(C(=O)Cc2ccccc2)CC[C@H]2CC[C@@H](C(=O)NCc3ccc(C(C)(C)C)cc3)N2C1=O | BIRC2 BIR3 domain | fluorescence polarization |  |  | reference: Ki XIAP over Ki cIAP1 | 782
O=C(CCCCCCNCc1ccccc1)NO | HDAC2 | deacetylase activity, inhibitor, fluorescence |  | with: Boc-Lys(Ac)-AMC substrate | reference: IC50 HDAC2 over IC50 HDAC1 | 9.1
N=C(N)NCCC[C@@H]1NC(=O)[C@H](Cc2c[nH]c3ccccc23)NC(=O)[C@H](CCCNC(=N)N)NC(=O)[C@H](Cc2c[nH]c3ccccc23)NC(=O)[C@H](CCCNC(=N)N)NC(=O)[C@H](Cc2c[nH]c3ccccc23)NC(=O)[C@H](CCCNC(=N)N)NC(=O)[C@H](Cc2c[nH]c3ccccc23)NC(=O)[C@H](CCCNC(=N)N)NC(=O)[C@H](Cc2c[nH]c3ccccc23)NC(=O)[C@H](CCCNC(=N)N)NC(=O)[C@H](Cc2c[nH]c3ccccc23)NC(=O)[C@H](CCCNC(=N)N)NC(=O)[C@H](Cc2c[nH]c3ccccc23)NC(=O)[C@H](CCCNC(=N)N)NC(=O)[C@H](Cc2c[nH]c3ccccc23)NC(=O)[C@H](CCCNC(=N)N)NC(=O)[C@H](Cc2c[nH]c3ccccc23)NC1=O | SRC (Homo sapiens, UniProt P12931) | enzyme activity |  |  | reference: IC50 PKC-alpha over IC50 SRC | 14
Cc1cc(N2CC[C@@](C#N)(C3CC3)C2=O)cc(NC(=O)Cc2ccccc2)n1 | Proline--tRNA ligase | aminoacylation activity, inhibitor, malachite green |  |  | reference: human over P. falciparum IC50 | 2.1
O=C(O)C(=O)O.O=C(c1ccc(NCCF)cc1)C1CCN(C2Cc3ccccc3CC2O)CC1 (single isomer, unassigned; (+)) | sigma-1 receptor and VAChT | binding | guinea pig |  | reference: Ki VAChT over Ki sigma-1 | 541
N[C@@H](CCC(=O)N[C@@H](CS[Se]Cc1ccc(-c2cccc(C(O)c3ccc(Cl)c(Cl)c3)c2)cc1)C(=O)NCC(=O)O)C(=O)O (stereo partly shown) | PTPN7 (Homo sapiens, UniProt P35236) | enzyme activity |  | with: pNPP, GSH 1 mM | reference: IC50 PTPN7 over STEP | 1.7
Cc1cc(N)nc(C[C@H]2CNC[C@H]2OCCCCCc2cccc(F)c2)c1 | NOS3 | enzyme activity, inhibitor |  |  | reference: Ki NOS3 over Ki nNOS | 4
O=C(CCCCCCN(Cc1cccnc1)Cc1cccnc1)NO | HDAC2 | deacetylase activity, inhibitor, fluorescence |  | with: Boc-Lys(Ac)-AMC substrate | reference: IC50 HDAC2 over IC50 HDAC1 | 8.3
COCCCn1nc(I)c2c(N)ncnc21 | RET (Homo sapiens, UniProt P07949) |  |  |  | reference: TRKA over RET | 50 fold
CN[C@@H](C)C(=O)N[C@H]1CN(C(=O)Cc2ccccc2)CC[C@H]2CC[C@@H](C(=O)NCc3ccccc3Br)N2C1=O | BIRC2 BIR3 domain | fluorescence polarization |  |  | reference: Ki XIAP over Ki cIAP1 | 65
O=C(CCCCCCNCc1ccc([N+](=O)[O-])cc1)NO | HDAC2 | deacetylase activity, inhibitor, fluorescence |  | with: Boc-Lys(Ac)-AMC substrate | reference: IC50 HDAC2 over IC50 HDAC1 | 13
CN[C@@H](C)C(=O)N[C@H]1CN(C(=O)Cc2ccccc2)CC[C@H]2CC[C@@H](C(=O)NCc3ccc(C(C)C)cc3)N2C1=O | BIRC2 BIR3 domain | fluorescence polarization |  |  | reference: Ki XIAP over Ki cIAP1 | 444
Cc1cc(CNCCCCCCC(=O)NO)ccc1F | HDAC2 | deacetylase activity, inhibitor, fluorescence |  | with: Boc-Lys(Ac)-AMC substrate | reference: IC50 HDAC2 over IC50 HDAC1 | 5.6

Excerpt of the above:
SMILES | target | test | system | conditions | how to read | selectivity ratio
N[C@@H](CCC(=O)N[C@@H](CS[Se]Cc1ccc(-c2cccc(C(O)c3ccc(Cl)c(Cl)c3)c2)cc1)C(=O)NCC(=O)O)C(=O)O (stereo partly shown) | PTPN7 (Homo sapiens, UniProt P35236) | enzyme activity |  | with: pNPP, GSH 1 mM | reference: IC50 PTPN7 over STEP | 1.7
Cc1cc(N)nc(C[C@H]2CNC[C@H]2OCCCCCc2cccc(F)c2)c1 | NOS3 | enzyme activity, inhibitor |  |  | reference: Ki NOS3 over Ki nNOS | 4
O=C(CCCCCCN(Cc1cccnc1)Cc1cccnc1)NO | HDAC2 | deacetylase activity, inhibitor, fluorescence |  | with: Boc-Lys(Ac)-AMC substrate | reference: IC50 HDAC2 over IC50 HDAC1 | 8.3
